Measured values of several laboratories.
Lines come from different studies, so protocols differ. ± gives the spread as reported.

CCOc1c([C@H](C)n2nc(C)c3c(N)ncnc32)cc(Cl)c(F)c1[C@@H]1CNC(=O)C1
Cmin (human patients, indolent lymphoma, plasma; oral, 20 mg, day 15, monotherapy, geometric mean): 202 nM

Nc1cccc2ccc(/C=C/C(=O)c3ccc(O)cc3)cc12
Stokes shift (toluene; 20 °C): 137 nm

O=C(Nc1nc2cccc(-c3ccc(CN4CCS(=O)(=O)CC4)cc3)n2n1)C1CC1
treatment-emergent adverse events (item: epigastric discomfort; human rheumatoid arthritis patients; oral, 200 mg once daily, 4 weeks, regardless of relatedness): 8.3%

CCc1nc(C(N)=O)c(Nc2ccc(N3CCC(N4CCN(C)CC4)CC3)c(OC)c2)nc1NC1CCOCC1
Cmax (Japanese patients, plasma; oral, 20 mg, cycle 0 day -2, single dose, mean): 15.3 ng/mL

Clc1ccc([C@H]2COC[C@@H](c3cccc(Br)c3)N2)cc1
solubility (shake-flask, LC-HRMS; aqueous buffer; 16 h, pH 6.8): < 4 µM

O=c1[nH]c(=O)n([C@@H]2O[C@H](CO)[C@@H](O)[C@@H]2F)cc1CCC[18F]
biodistribution (nude mice, RG2 tumour, spleen; intravenous, dose not given, 2 h): 0.16 ± 0.09 %ID/g

Cc1cc(/C=C/C#N)cc(C)c1Nc1ccnc(Nc2ccc(C#N)cc2)n1
equilibrium solubility (buffer; 24 h, pH 6.8, 37 °C, below quantification limit 50 ng/mL): not detected

Oc1nc2nonc2cc1Nc1c(F)c(F)c(F)c(F)c1F
muscle weight (obese C57BL/6J mice, Western diet 19 weeks; oral gavage, 130 mg/kg/day, end of treatment): no effect

C[C@@H](Oc1ccc(S(C)(=O)=O)cc1C(=O)N1C[C@@H]2C[C@]2(c2cc(C(F)(F)F)on2)C1)C(F)(F)F
linearity index (healthy young humans, plasma; oral, 50 mg once daily; reference: AUCtau,ss over AUC(0-inf)): 0.779

CCN1CCN(Cc2ccc(NC(=O)c3ccc(C)c(NC(=O)c4cncc(-c5cccs5)c4)c3)cc2C(F)(F)F)CC1
half-life (C57BL/6 mice, epithelial lining fluid; intraperitoneal, 10 mg/kg): 2.02 h

COC(=O)c1ccc([C@H]2COC[C@@H](C3CC3)N2)cc1
solubility (shake-flask, LC-HRMS; aqueous buffer; 16 h, pH 6.8): > 750 µM

C[C@@H](Nc1cc(F)cc(F)c1)c1cc(C(=O)N(C)C)cc2c(=O)cc(N3CCOCC3)oc12
related serious adverse events (item: Anemia; advanced solid tumour patients; oral, dose not given, dose expansion): 0%

CC(C)(C(=O)N1CCOc2c(C#N)cncc2C1)C(F)F
subjects with headache TEAE (human, both sexes; oral, 30 mg single dose): 0%

CCN1/C(=C/C(C)=O)Sc2ccc(F)cc21
PR interval change (cynomolgus monkey; oral, 30 mg/kg, 2 h post-dose; reference: pre-dose): 97.4 ± 7.2%

Cc1cccc(CNC(=O)c2cn(CCNC(=O)c3ccccc3S)c3cc4c(cc3c2=O)OC(F)(F)O4)n1
MRT(0-inf) (Sprague-Dawley rat, male, plasma; intravenous, 5 mg/kg of parent drug): 0.81 ± 0.35 h

C[C@@H](c1ncncc1F)[C@](O)(Cn1cncn1)c1ccc(F)cc1F
any TEAE (human; oral, 400 mg, drug interaction trial): 36.4%

COC(=O)c1ccc([C@H]2COC(C)(C)[C@@H](c3ccc(Cl)c(Cl)c3)N2)cc1
solubility (shake-flask, LC-HRMS; aqueous buffer; 16 h, pH 6.8): < 4 µM

CCO[C@H]1CCN(Cc2c(OC)cc(C)c3[nH]ccc23)[C@H](c2ccc(C(=O)O)cc2)C1
unbound half-life (human moderate hepatic impairment, plasma; oral, 200 mg single dose, median): 1240 min

CCOC(=O)N1C[C@@H]([C@H]2CCOC2)N[C@@H](C2CCC2)C1
solubility (shake-flask, LC-HRMS; aqueous buffer; 16 h, pH 6.8): > 750 µM

CNC(=O)c1ccc(-c2cnc3ncc(Cc4ccc5ncccc5c4)n3n2)cc1F
patients with adverse event (item: Insomnia; cancer patients; oral, 600 mg twice daily, all expansion cohorts, grade 3-4): 0%

C=CC(=O)N1CCC(Oc2cc3c(Nc4ccc(Cl)c(Cl)c4F)ncnc3cc2OC)CC1
MRT(0-inf) (Sprague-Dawley rat, male, plasma; oral, 2 mg/kg, 1 weeks pretreatment, with: Schisandrin A 20 mg/kg daily pretreatment): 5.68 ± 0.96 h

C[C@@H](N)C1CCN(S(=O)(=O)c2cccc3cnccc23)CC1
TEAE incidence (item: Nausea; healthy volunteers; 150 mg, fed): 0%

O=C(O)c1cccc(C(=O)O)c1
apparent dissolution enthalpy (betaine/glycerol DES-water; DES mass fraction 0.50): 12.3 kJ/mol

Cn1cc([C@H]2C[C@H]3CSC(N)=N[C@@]3(c3ccc(F)cc3F)CO2)cn1
CSF concentration (mouse; subcutaneous, 3 mg/kg, 9 h): not detected

CCCCc1ccc(C#Cc2ccc(OCC)cc2)cc1
placental accumulation (rat, placenta; 1000 ng/mL in perfusate, middle dose, mixture of 21 LCMs): 11.1 ± 13.1 ng/g

O=C(CC1OCCN(Cc2ccccc2)C1=O)Nc1ccc2c(c1)OCCO2 (stereo not drawn)
solubility (aqueous buffer; pH 7.4): 45.5 µg/mL

OC[C@H]1O[C@@H](c2ccc(Cl)c(Cc3ccc(O[C@H]4CCOC4)cc3)c2)[C@H](O)[C@@H](O)[C@@H]1O
change in Phosphate (Japanese type 1 diabetes patients, blood; 25 mg, day 28; reference: baseline): 0 mg/dL

CCC(C)n1ncn(-c2ccc(N3CCN(c4ccc(OCC5COC(Cn6cncn6)(c6ccc(Cl)cc6Cl)O5)cc4)CC3)cc2)c1=O (stereo not drawn)
equilibrium solubility (aqueous medium; pH 1): 45 µg/mL

Cc1cc(Nc2ncnc3ccc(NC4=NC(C)(C)CO4)cc23)ccc1Oc1ccn2ncnc2c1
drug-related adverse events (item: Dizziness; healthy volunteers; oral, dose not given, grade 1-2): 7.7%

COc1cc(C(=O)NC2CCN(C)CC2)c(F)cc1Nc1ncc(C(F)(F)F)c(Oc2cccc3c2C(=O)N(C)C3)n1
dose-normalised AUC(0-inf) (human patients, plasma; oral, 300 mg single dose, geometric mean): 287 nmol·h/L per mg

CNCCOC12CC3(C)CC(C)(CC(Cn4ncc(-c5ccc(N6CCc7cccc(C(=O)Nc8nc9ccccc9s8)c7C6)nc5C(=O)O)c4C)(C3)C1)C2
QRS duration change (beagle dog, male, anaesthetised; intravenous bolus, 0.03 mg/kg, 75 min; reference: baseline): -2 ms

C[C@H](CCC(=O)NCC(=O)O)[C@H]1CC[C@H]2[C@@H]3CC[C@@H]4C[C@H](OS(=O)(=O)O)CC[C@]4(C)[C@H]3CC[C@]12C
Cmin (human, plasma; baseline): 396 ± 105 nM

Clc1cc(Cl)cc([C@@H]2COC[C@]3(CC[C@H](c4ccccc4)CC3)N2)c1
solubility (shake-flask, LC-HRMS; aqueous buffer; 16 h, pH 6.8): < 4 µM

O=C(Cc1ccc(OC(F)(F)F)cc1)Nc1cc(C2CC2)[nH]n1
solubility (aqueous buffer; pH 7.4): < 3.49 µg/mL

N#Cc1ccc2c(c1)[C@H]1CCCN(C(=O)c3ccc4[nH]cnc4c3)[C@H]1C2
ACTH level change (human; 360 mg, day 7; reference: baseline): 1.9 pmol/L

c1ccc(-c2ccc([C@H]3COC[C@H](c4ccc(-n5cncn5)cc4)N3)cc2)cc1
solubility (shake-flask, LC-HRMS; aqueous buffer; 16 h, pH 6.8): < 4 µM

O=C(c1cccnc1-c1ccncc1)N1CCC(O)(Cc2ccccc2)CC1
Cmax at steady state (human, plasma; oral, 300 mg, with: itraconazole): 2150 ng/mL

O=C(O)CCC(=O)O.[2H]C([2H])([2H])Oc1cc(C)c2[nH]ccc2c1CN1CC[C@@H](C2CC2)C[C@H]1c1ccc(C(=O)O)cc1
Cmin (human, plasma; 200 mg once daily, day 10, multiple ascending dose, geometric mean): 1990 ng/mL

Cc1cc([C@@H](C)Nc2ccccc2C(=O)O)c2nc(N3CCC(F)(F)CC3)c(C#N)c(=O)n2c1
concentration (NOD-SCID mice, HCC1954 xenograft; intraperitoneal, 60 mg/kg once daily, 1 h): 23400 ng/mL

CCc1ccc(-c2ccc(-c3cc(F)c(F)c(F)c3)c(F)c2)cc1
placental accumulation (rat, placenta; 1000 ng/mL in perfusate, middle dose, mixture of 21 LCMs): 11.2 ± 12.1 ng/g

CCn1c(SCC(=O)Nc2cccc(OC)c2)nnc1-c1ccncc1
solubility (aqueous buffer; pH 7.4): 4.6 µg/mL

COC(=O)c1ccc2c(c1)NC(=O)/C2=C(\Nc1ccc(N(C)C(=O)CN2CCN(C)CC2)cc1)c1ccccc1
AUC(0-t), LS geometric mean (healthy human; oral, 150 mg single, alone): 137 ng·h/mL

Some of these lines once more:
O=C(CC1OCCN(Cc2ccccc2)C1=O)Nc1ccc2c(c1)OCCO2 (stereo not drawn)
solubility (aqueous buffer; pH 7.4): 45.5 µg/mL

OC[C@H]1O[C@@H](c2ccc(Cl)c(Cc3ccc(O[C@H]4CCOC4)cc3)c2)[C@H](O)[C@@H](O)[C@@H]1O
change in Phosphate (Japanese type 1 diabetes patients, blood; 25 mg, day 28; reference: baseline): 0 mg/dL

CCC(C)n1ncn(-c2ccc(N3CCN(c4ccc(OCC5COC(Cn6cncn6)(c6ccc(Cl)cc6Cl)O5)cc4)CC3)cc2)c1=O (stereo not drawn)
equilibrium solubility (aqueous medium; pH 1): 45 µg/mL

Cc1cc(Nc2ncnc3ccc(NC4=NC(C)(C)CO4)cc23)ccc1Oc1ccn2ncnc2c1
drug-related adverse events (item: Dizziness; healthy volunteers; oral, dose not given, grade 1-2): 7.7%

COc1cc(C(=O)NC2CCN(C)CC2)c(F)cc1Nc1ncc(C(F)(F)F)c(Oc2cccc3c2C(=O)N(C)C3)n1
dose-normalised AUC(0-inf) (human patients, plasma; oral, 300 mg single dose, geometric mean): 287 nmol·h/L per mg

CNCCOC12CC3(C)CC(C)(CC(Cn4ncc(-c5ccc(N6CCc7cccc(C(=O)Nc8nc9ccccc9s8)c7C6)nc5C(=O)O)c4C)(C3)C1)C2
QRS duration change (beagle dog, male, anaesthetised; intravenous bolus, 0.03 mg/kg, 75 min; reference: baseline): -2 ms
